# Published values of several laboratories.
# Every numbered part comes from another study and shows a few of its results, in no order. Changes are numbered by the printed parent chain.

# Sample 1
# Target: PABPC1L2, full length, GST fusion (mouse, UniProt A0ABA7IW68)
# Method: RNAcompete
# Form: RNA
# Medium: in vitro
# Tested at: 20 nM
# Notes: 7-mer, probes averaged, single round
# Reference: mean of 7-mers
# Direction: higher = stronger binding
# Target sequence (chain): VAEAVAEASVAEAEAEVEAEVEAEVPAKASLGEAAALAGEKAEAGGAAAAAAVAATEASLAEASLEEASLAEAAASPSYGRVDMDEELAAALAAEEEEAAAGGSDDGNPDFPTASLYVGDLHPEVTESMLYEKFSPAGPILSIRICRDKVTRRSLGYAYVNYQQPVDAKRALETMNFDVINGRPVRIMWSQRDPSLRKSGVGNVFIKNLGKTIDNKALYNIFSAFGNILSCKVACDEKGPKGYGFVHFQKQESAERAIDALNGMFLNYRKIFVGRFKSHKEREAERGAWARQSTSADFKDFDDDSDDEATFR
Sequence,7-mer Z-score
AUUCAGC,-0.135
UCUAUGC,-0.324
ACAGACU,-0.115
UAGUGUC,-0.155
CCAAUGA,-0.0482
CCAGUGG,-0.153
UGCUCGG,-0.191
AUGAGUC,-0.269

# Sample 2
# Target: Histone acetyltransferase KAT6A, both winged helices, GST fusion (KAT6A, Homo sapiens, UniProt Q92794, residues 1-181)
# Method: protein binding microarray
# Form: double-stranded DNA, one strand shown
# Medium: in vitro
# Tested at: not given
# Notes: 8-mer, flanks averaged, mean of 2 arrays, mostly near background
# Reference: not given
# Direction: higher = stronger binding
# Target sequence (chain): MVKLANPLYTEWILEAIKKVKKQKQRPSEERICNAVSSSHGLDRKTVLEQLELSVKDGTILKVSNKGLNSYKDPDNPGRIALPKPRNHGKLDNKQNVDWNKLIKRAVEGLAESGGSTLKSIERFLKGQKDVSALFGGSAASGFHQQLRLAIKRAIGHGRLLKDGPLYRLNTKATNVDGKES
Sequence,E-score
ATGAACCG,0.142
ACTGAAAA,-0.0932
AGGAACCT,-0.176
CGACGTAC,0.0194
GCGTCAAA,0.101
ATAAGGAC,-0.00919
CAGTGATA,-0.152
ATTCTTTA,-0.114

# Single results of other studies
# P1: viral docking peptide; YKVKRRLVFGADD; partner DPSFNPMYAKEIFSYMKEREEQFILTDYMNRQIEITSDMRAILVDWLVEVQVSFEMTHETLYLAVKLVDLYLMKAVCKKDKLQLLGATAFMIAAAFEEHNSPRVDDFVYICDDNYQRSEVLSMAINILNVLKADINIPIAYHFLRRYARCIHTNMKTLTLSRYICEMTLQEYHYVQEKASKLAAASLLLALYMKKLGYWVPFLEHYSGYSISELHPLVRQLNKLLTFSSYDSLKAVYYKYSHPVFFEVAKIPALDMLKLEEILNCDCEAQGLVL
Substance,target or system,test,test system,conditions,how to read,quantity,value
"PARP9 (Homo sapiens, UniProt Q8IXQ6)","DTX3L (Homo sapiens, UniProt Q8TDB6)",cross-linking MS,cell fractions,together with: DSSO,,cross-linked residues,K557 to K401
P1 D13A,"CCNB3, cyclin fold, Cln2 fusion (human)","yeast growth competition, sequencing",yeast,strong parent motif,"reference: not given, higher = stronger binding",normalised enrichment score,1.09
"LTN1 (Homo sapiens, UniProt O94822)","H1-10 (Homo sapiens, UniProt Q92522)",cross-linking MS,cell fractions,together with: DSSO,,cross-linked residues,S192 to K166
"ALDH7A1 (Homo sapiens, UniProt P49419)","CACNA1B (Homo sapiens, UniProt Q00975)",cross-linking MS,cell fractions,together with: DSSO,,cross-linked residues,K109 to K158
"SMC2 (Homo sapiens, UniProt O95347)","SMC4 (Homo sapiens, UniProt Q9NTJ3)",cross-linking MS,cell fractions,together with: DHSO,,cross-linked residues,E305 to D394
